Published values from different studies.
Parts stem from different laboratories: compare values within a part only.
UniProt Q9UBS5, sequence (whole entry, looked up): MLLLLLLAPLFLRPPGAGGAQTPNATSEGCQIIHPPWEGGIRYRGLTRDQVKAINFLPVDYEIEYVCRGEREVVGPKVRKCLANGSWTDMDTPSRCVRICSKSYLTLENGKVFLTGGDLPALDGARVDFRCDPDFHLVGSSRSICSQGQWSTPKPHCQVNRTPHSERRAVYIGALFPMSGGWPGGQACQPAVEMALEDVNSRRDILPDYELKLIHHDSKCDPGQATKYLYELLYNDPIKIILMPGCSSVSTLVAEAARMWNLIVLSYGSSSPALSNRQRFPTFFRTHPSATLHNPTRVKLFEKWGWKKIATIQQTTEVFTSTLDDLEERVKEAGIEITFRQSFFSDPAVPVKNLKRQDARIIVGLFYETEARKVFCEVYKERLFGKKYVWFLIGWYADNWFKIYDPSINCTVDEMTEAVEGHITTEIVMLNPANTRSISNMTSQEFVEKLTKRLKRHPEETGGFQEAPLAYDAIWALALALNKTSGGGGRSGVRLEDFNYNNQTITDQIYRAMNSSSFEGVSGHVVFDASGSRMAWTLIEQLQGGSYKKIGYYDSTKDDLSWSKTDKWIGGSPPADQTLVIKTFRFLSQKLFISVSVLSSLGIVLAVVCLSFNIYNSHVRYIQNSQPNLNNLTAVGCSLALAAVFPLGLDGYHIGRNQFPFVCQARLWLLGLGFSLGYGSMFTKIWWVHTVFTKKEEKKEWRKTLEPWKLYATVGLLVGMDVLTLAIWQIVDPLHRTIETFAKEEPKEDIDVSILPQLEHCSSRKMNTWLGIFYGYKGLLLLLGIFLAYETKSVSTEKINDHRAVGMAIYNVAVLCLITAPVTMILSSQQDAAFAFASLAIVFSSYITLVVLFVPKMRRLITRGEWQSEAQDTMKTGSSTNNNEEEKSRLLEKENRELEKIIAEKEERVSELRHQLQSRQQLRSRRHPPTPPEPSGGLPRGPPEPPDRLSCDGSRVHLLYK
UniProt Q99677, sequence (whole entry, looked up): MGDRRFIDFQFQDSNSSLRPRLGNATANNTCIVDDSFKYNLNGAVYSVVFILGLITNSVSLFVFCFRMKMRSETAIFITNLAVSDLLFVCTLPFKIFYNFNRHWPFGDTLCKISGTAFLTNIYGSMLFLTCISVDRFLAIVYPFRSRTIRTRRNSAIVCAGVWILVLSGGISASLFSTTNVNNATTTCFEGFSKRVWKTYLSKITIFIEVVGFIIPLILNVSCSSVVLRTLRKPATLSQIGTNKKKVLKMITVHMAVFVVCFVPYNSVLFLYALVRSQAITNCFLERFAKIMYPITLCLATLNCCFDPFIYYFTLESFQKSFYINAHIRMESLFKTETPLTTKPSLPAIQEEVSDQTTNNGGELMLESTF
UniProt P46091, sequence (whole entry, looked up): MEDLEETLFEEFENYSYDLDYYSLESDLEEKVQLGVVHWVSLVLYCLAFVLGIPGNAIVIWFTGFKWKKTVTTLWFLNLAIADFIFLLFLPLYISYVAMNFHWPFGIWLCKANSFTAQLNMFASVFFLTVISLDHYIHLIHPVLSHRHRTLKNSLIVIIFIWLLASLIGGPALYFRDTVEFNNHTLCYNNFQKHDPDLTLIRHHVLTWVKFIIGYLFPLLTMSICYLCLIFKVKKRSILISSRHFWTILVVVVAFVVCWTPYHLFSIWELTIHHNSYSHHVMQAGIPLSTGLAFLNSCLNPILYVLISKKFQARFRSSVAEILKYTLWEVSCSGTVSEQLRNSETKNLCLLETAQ
UniProt P43220, sequence (whole entry, looked up): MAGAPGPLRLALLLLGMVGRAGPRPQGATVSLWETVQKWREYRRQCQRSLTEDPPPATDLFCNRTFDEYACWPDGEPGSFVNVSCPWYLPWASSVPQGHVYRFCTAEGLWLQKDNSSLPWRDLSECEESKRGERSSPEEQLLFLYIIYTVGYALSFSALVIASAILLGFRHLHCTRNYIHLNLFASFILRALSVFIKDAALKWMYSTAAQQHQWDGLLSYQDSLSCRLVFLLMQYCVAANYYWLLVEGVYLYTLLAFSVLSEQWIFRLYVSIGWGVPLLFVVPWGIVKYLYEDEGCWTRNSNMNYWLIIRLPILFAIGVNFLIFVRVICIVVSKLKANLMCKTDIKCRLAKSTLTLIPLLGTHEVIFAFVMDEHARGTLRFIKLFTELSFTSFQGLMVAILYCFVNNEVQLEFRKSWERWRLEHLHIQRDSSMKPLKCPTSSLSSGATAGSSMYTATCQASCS
UniProt P51582, sequence (whole entry, looked up): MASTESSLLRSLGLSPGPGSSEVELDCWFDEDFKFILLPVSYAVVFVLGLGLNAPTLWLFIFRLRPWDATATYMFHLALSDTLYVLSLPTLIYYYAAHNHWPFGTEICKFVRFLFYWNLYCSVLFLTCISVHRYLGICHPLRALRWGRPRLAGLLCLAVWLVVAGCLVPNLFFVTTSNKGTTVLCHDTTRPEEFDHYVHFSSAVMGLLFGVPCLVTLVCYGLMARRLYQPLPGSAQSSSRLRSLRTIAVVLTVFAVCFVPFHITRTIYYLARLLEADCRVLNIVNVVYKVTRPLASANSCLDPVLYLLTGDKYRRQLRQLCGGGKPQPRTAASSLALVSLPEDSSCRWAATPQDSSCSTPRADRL
UniProt Q12866, sequence (whole entry, looked up): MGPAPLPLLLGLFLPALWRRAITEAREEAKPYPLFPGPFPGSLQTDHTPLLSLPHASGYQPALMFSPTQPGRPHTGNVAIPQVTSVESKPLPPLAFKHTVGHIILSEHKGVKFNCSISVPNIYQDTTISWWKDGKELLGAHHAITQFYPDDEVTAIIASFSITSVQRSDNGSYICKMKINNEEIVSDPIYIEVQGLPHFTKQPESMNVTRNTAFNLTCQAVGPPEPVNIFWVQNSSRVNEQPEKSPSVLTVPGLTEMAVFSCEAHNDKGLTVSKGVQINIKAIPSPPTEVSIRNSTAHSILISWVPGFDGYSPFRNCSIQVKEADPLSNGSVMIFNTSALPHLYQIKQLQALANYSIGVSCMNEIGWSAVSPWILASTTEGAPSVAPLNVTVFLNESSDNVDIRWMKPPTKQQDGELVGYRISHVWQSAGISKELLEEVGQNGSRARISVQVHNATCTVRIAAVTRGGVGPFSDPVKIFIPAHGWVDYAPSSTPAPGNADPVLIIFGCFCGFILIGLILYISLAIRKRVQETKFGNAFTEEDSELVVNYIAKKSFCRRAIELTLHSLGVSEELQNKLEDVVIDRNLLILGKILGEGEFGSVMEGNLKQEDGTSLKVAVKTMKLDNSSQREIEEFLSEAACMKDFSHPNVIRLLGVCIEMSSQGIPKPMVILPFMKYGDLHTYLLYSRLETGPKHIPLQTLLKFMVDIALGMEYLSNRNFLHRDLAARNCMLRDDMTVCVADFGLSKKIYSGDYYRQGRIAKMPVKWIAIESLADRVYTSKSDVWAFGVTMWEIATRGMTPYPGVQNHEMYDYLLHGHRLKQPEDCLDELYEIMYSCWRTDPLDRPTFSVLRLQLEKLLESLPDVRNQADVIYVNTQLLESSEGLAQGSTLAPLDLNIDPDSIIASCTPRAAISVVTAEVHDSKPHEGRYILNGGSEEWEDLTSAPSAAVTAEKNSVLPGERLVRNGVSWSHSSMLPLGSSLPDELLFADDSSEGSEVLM
UniProt P28566, sequence (whole entry, looked up): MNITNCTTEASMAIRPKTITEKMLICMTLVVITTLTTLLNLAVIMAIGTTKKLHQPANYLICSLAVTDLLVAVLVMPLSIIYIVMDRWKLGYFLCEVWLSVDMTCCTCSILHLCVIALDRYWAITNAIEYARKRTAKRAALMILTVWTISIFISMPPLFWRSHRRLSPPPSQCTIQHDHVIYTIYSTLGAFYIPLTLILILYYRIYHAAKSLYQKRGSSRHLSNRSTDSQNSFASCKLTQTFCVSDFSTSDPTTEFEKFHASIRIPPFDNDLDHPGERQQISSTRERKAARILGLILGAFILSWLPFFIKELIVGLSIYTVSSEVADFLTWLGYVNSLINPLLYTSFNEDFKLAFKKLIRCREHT
UniProt O15303, sequence (whole entry, looked up): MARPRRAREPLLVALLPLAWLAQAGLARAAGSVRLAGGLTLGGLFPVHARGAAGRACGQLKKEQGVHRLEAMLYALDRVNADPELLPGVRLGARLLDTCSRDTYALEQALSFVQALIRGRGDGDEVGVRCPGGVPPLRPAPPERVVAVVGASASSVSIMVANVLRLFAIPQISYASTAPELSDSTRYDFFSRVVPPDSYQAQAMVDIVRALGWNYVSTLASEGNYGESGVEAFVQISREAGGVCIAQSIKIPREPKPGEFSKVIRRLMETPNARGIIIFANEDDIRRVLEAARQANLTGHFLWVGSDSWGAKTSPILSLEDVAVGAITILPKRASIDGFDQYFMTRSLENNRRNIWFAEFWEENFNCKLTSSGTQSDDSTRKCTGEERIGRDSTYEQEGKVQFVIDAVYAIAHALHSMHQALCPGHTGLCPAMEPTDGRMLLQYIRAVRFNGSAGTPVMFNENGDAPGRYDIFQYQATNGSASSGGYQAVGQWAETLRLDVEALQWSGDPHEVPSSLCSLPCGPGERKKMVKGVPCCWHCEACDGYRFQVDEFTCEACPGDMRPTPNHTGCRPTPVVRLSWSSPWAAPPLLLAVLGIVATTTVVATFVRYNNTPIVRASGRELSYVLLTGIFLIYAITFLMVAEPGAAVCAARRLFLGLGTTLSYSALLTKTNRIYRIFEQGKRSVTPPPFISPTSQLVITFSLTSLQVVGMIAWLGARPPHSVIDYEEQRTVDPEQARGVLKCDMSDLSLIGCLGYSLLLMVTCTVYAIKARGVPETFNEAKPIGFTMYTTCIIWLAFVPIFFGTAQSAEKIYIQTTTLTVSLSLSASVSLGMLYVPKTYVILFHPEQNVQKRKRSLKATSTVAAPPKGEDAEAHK

Study 1
Cell line: HaCaT
Tested at: 100 µM
Time: 18 h
| SMILES | viability [%] |
| --- | --- |
| CCC(CC)[C@H](NC(C)=O)[C@@H]1[C@H](O)[C@@H](C(=O)O)C[C@H]1NC(=N)N | 112 |
| CC(C)(CO)C(O)C(=O)NCCCO (stereo not shown) | 96.9 |
| CCc1cc2c(cc1N1CCC(N3CCOCC3)CC1)C(C)(C)c1[nH]c3cc(C#N)ccc3c1C2=O | 30.2 |
| CN1CCOC(c2ccccc2)c2ccccc2C1 (stereo not shown) | 107 |
| CC(C)C[C@H](NC(=O)[C@@H](O)[C@H](N)Cc1ccccc1)C(=O)O | 93.2 |
| NC(=O)CCCCC1CCSS1 (stereo not shown) | 100 |
| Clc1ccc2nsnc2c1NC1=NCCN1 | 110 |
| COc1ccc2[nH]c(SCc3ncc(C)c(OC)c3C)nc2c1 | 72.6 |

Study 2
Organism: Sarcocystis neurona
Read-out: parasite growth
Tested at: 10 µM
Time: 96 h
Notes: secondary screen
| Compound | inhibition [%] |
| --- | --- |
| COc1ccc(-c2oc3c(CC=C(C)C)c(O[C@@H]4O[C@H](CO)[C@@H](O)[C@H](O)[C@H]4O)cc(O)c3c(=O)c2O[C@@H]2O[C@@H](C)[C@H](O)[C@@H](O)[C@H]2O)cc1 | -15.3 |
| CN(C)CCCC1(c2ccc(F)cc2)OCc2cc(C#N)ccc21 (stereo not shown) | -14.4 |
| C[C@H](CCC(=O)O)[C@H]1CC[C@H]2[C@@H]3C(=O)C[C@@H]4CC(=O)CC[C@]4(C)[C@H]3CC(=O)[C@]12C | -33.6 |
| O=C1CCC(N2C(=O)c3ccccc3C2=O)C(=O)N1 (stereo not shown) | -15.4 |
| Clc1ccc2c(c1)C(N1CCNCC1)=Nc1ccccc1O2 | -16.8 |
| CN(C)CCOc1ccc(/C(=C(/CCCl)c2ccccc2)c2ccccc2)cc1 | -32.9 |
| CCn1cc(C(=O)O)c(=O)c2cc(F)c(N3CCNCC3)cc21 | -23.3 |
| O=C(O)Cc1ccccc1Nc1c(Cl)cccc1Cl | -5.5 |

Study 3
SMILES: NC(N)=NC(=O)c1nc(Cl)c(N2CCCCCC2)nc1N
Read-out: β-arrestin recruitment
Action: agonist
Technique: PRESTO-Tango
Tested at: 10 µM
Baseline: untreated
| target | fold over basal |
| --- | --- |
| Lysophosphatidic acid receptor 4 (LPAR4, Homo sapiens, UniProt Q99677) | 0.82 |
| Mas-related G-protein coupled receptor member X2 (MRGPRX2, Homo sapiens, UniProt Q96LB1) | 0.69 |
| Gamma-aminobutyric acid type B receptor subunit 1 (GABBR1, Homo sapiens, UniProt Q9UBS5) | 1.11 fold |
| P2Y purinoceptor 4 (P2RY4, Homo sapiens, UniProt P51582) | 0.9 |
| Chemerin-like receptor 2 (CMKLR2, Homo sapiens, UniProt P46091) | 0.63 |
| Metabotropic glutamate receptor 6 (Homo sapiens, UniProt O15303) | 0.88 fold |
| Glucagon-like peptide 1 receptor (GLP1R, Homo sapiens, UniProt P43220) | 0.35 fold |
| 5-hydroxytryptamine receptor 1E (HTR1E, Homo sapiens, UniProt P28566) | 1.28 |

Mixed results
| Compound | target | test | conditions | scale | endpoint | result |
| --- | --- | --- | --- | --- | --- | --- |
| COc1ccc2c(c[n+](C)c3c4cc5c(cc4ccc23)OCO5)c1OC | Tyrosine-protein kinase Mer (MERTK, Homo sapiens, UniProt Q12866) | enzyme activity, inhibitor | 0.5 µM | baseline: control | remaining activity | 90.8% |

Excerpt of the above (study 3):
| target | fold over basal |
| --- | --- |
| Metabotropic glutamate receptor 6 (Homo sapiens, UniProt O15303) | 0.88 fold |
| Glucagon-like peptide 1 receptor (GLP1R, Homo sapiens, UniProt P43220) | 0.35 fold |
| 5-hydroxytryptamine receptor 1E (HTR1E, Homo sapiens, UniProt P28566) | 1.28 |
